Experimental data gathered from unrelated publications.
Each numbered part is a random draw from the data of one study; scales do not carry over between parts.
Chain of UniProt P06239 (whole entry, looked up): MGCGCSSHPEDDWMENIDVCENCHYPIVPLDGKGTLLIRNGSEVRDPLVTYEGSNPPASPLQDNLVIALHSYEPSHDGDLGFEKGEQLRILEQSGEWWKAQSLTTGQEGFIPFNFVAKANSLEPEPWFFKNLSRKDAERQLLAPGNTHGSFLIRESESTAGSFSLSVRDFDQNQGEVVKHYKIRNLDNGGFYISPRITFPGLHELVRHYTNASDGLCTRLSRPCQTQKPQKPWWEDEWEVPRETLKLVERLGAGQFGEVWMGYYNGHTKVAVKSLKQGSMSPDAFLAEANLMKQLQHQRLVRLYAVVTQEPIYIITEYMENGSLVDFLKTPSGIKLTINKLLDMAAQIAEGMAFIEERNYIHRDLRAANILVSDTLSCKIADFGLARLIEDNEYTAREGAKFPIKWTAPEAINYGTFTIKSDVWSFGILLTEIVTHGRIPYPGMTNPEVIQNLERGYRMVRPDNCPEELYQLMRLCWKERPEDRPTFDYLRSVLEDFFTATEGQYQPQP
Chain of UniProt O60331 (whole entry, looked up): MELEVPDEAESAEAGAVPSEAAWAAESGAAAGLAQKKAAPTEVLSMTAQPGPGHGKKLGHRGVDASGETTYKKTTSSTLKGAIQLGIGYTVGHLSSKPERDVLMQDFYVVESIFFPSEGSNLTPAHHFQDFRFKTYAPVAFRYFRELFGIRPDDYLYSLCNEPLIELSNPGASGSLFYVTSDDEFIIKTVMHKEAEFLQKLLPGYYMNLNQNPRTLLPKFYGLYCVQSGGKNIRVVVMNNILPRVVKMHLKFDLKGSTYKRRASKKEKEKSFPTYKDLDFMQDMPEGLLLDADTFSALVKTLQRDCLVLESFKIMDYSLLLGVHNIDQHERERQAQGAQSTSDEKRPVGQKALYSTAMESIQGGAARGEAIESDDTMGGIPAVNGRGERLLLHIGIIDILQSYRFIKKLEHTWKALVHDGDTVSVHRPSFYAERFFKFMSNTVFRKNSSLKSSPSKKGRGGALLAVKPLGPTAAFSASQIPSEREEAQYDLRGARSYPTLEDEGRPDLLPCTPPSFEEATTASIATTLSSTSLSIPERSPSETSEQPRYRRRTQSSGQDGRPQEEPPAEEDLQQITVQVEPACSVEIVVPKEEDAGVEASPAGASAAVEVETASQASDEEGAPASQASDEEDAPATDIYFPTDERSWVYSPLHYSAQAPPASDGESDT
Chain of UniProt P22607 (whole entry, looked up): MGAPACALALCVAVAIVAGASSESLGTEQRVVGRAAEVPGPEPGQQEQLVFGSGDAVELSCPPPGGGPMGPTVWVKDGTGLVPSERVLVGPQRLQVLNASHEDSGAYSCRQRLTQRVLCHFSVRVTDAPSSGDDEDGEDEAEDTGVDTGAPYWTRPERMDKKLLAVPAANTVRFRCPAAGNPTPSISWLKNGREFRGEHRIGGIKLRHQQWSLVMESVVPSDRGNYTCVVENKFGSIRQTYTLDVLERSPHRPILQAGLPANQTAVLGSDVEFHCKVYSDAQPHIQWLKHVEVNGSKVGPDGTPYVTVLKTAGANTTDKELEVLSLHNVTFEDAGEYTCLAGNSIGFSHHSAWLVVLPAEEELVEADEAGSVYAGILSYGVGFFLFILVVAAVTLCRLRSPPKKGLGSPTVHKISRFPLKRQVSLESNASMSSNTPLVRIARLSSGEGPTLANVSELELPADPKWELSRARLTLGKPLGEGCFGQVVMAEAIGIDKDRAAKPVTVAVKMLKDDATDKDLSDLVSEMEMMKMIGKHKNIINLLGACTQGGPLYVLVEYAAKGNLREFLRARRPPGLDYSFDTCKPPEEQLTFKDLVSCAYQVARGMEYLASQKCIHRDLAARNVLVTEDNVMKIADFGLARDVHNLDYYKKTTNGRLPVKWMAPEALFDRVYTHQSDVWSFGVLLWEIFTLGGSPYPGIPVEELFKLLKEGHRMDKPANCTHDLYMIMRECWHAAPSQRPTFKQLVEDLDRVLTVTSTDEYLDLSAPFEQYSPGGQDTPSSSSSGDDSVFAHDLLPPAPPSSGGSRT
Chain of UniProt Q99558 (whole entry, looked up): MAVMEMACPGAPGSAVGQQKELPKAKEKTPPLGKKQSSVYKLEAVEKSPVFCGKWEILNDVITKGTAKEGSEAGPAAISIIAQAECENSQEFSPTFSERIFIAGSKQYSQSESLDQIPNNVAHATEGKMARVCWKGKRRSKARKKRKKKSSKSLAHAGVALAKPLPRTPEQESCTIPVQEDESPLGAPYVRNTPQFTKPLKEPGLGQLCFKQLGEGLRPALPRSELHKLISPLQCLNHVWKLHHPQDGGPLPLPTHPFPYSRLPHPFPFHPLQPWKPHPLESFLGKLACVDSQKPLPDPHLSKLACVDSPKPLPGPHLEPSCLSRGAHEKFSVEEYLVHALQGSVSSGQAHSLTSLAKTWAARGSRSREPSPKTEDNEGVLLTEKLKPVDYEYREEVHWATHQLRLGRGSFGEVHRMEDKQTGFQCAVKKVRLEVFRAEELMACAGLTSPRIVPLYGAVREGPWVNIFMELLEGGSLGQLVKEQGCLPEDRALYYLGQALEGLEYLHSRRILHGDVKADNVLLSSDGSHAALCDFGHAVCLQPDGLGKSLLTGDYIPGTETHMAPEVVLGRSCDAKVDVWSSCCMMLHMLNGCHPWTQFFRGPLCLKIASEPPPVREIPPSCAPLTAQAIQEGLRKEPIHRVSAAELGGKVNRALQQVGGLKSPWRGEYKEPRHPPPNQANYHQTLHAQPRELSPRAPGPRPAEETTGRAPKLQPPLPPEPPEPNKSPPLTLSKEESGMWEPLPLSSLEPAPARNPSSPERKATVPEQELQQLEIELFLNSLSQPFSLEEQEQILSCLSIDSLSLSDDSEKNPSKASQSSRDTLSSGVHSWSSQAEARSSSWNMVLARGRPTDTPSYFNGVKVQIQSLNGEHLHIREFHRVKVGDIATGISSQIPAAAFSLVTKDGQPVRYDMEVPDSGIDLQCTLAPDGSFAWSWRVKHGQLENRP
Chain of UniProt P10721 (whole entry, unmodified, looked up): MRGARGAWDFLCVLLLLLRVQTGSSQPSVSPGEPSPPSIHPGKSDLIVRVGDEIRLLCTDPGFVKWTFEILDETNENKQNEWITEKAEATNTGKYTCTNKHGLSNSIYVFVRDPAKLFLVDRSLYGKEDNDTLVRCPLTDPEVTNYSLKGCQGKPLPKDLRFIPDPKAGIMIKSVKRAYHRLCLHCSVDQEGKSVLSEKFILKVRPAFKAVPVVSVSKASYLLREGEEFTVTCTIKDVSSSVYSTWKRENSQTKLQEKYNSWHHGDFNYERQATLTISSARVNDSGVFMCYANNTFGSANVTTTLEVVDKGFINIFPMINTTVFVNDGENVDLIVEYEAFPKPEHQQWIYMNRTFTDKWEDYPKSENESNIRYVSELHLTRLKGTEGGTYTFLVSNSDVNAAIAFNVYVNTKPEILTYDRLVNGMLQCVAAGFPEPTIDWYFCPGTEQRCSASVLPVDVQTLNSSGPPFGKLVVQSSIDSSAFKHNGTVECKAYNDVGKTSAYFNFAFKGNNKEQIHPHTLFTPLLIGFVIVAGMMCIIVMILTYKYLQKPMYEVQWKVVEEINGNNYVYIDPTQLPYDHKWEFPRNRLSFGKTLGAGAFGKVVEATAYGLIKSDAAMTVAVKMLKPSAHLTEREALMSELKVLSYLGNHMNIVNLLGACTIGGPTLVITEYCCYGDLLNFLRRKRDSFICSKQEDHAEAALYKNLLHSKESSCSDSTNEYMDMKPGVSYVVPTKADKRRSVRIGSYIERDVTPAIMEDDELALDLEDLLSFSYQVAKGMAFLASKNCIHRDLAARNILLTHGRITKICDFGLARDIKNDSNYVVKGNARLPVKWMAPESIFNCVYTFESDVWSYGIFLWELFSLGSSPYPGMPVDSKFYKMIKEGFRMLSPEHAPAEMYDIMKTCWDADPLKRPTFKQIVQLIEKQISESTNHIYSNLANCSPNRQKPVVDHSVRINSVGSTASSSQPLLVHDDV
Chain of UniProt Q15569 (whole entry, looked up): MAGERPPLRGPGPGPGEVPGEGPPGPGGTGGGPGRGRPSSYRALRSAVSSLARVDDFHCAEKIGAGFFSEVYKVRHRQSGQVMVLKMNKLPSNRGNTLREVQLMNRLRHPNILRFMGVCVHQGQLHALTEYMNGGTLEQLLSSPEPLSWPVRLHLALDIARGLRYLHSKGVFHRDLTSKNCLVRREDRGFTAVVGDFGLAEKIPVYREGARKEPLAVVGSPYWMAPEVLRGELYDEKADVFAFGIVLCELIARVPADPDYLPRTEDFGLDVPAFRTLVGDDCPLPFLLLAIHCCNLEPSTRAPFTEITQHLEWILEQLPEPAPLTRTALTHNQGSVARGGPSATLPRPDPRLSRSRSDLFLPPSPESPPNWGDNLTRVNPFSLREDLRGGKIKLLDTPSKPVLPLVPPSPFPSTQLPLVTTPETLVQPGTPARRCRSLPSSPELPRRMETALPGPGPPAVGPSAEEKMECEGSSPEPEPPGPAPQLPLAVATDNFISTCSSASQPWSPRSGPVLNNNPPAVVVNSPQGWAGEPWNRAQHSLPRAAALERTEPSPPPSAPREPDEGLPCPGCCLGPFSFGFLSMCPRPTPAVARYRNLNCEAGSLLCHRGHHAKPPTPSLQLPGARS

Block 1
Compound: COc1cc(-c2cn(C3CCc4ccccc4N(CC(F)(F)F)C3=O)nn2)ccc1-n1ccc(C)n1 (stereo not shown)
Effect on: cell-free assay
Technique: competition with immobilised ligand
Concentration: 1 µM
target	remaining binding [%]
PIP5K1C (Homo sapiens, UniProt O60331)	100
TESK1 (Homo sapiens, UniProt Q15569)	93
KIT (Homo sapiens, UniProt P10721, V559D)	96
MAPK1 (Homo sapiens, UniProt P28482)	100
MAP3K12 (Homo sapiens, UniProt Q12852)	100

Block 2
Target: TAR DNA-binding protein 43, full length, His tag (TARDBP, Homo sapiens, UniProt Q13148, residues 1-414)
Technique: RNA Bind-n-Seq
Form: RNA
Matrix: in vitro
Concentration: 20 nM
Setting: 6-mer, flanks averaged, single round
With: 150 mM KCl
Baseline: input library
Reading: higher = stronger binding
Oligonucleotide	6-mer enrichment (R)
UGCCAU	0.645
GAACCC	0.705
UAGAUU	0.575
CGGACG	1.54
CCGCCG	0.816
UUGUUC	0.587
ACCCUG	0.673
ACGAAG	0.971

Block 3
Compound: CC[n+]1c(/C=C/N(C)c2ccccc2)n(-c2ccccc2)c2ccc(-c3nc4ccccc4s3)cc21
Effect on: enzyme activity
Action: inhibitor
Concentration: 0.5 µM
Baseline: control
target	remaining activity
EPHA3 (Homo sapiens, UniProt P29320)	99.4%
JAK3 (Homo sapiens, UniProt P52333)	106%
MST1R (Homo sapiens, UniProt Q04912)	94.4%
FRK (Homo sapiens, UniProt P42685)	97.1%
ARAF (Homo sapiens, UniProt P10398)	102%
TBK1 (Homo sapiens, UniProt Q9UHD2)	95.7%
NEK6 (Homo sapiens, UniProt Q9HC98)	96.1%
TEK (Homo sapiens, UniProt Q02763)	96%
MAPKAPK2 (Homo sapiens, UniProt P49137)	97.2%
MAP3K14 (Homo sapiens, UniProt Q99558)	96%
LCK (Homo sapiens, UniProt P06239)	89.9%
FGFR3 (Homo sapiens, UniProt P22607)	88.4%
NEK1 (Homo sapiens, UniProt Q96PY6)	102%

Block 4
Target: Centromere-binding protein 1, full length, His-tagged (CBF1, Saccharomyces cerevisiae, UniProt P17106, residues 1-351)
Chain of UniProt P17106 (whole entry, looked up): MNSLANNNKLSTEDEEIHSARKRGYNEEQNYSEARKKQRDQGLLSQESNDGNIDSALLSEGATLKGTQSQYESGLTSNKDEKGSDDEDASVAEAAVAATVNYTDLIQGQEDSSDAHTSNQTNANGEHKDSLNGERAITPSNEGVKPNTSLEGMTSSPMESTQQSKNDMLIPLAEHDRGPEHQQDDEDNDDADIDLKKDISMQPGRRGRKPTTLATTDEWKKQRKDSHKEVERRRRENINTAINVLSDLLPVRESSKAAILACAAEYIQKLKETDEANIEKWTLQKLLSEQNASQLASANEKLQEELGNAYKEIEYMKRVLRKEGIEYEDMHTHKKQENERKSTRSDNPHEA
Technique: competition protein-binding microarray
Form: double-stranded DNA, one strand shown
Matrix: in vitro
Concentration: 2 µM
Setting: whole 60-bp probe, lowest competitor level
With: Pho4 competitor, 0.05 µM
Reading: higher = stronger binding
Constant ends, left off below: … GTCTTGATTCGCTTGACGCTGCTG
Oligonucleotide	fluorescence intensity [a.u.]
GATAAGAGAGCACAGCACGTGGGTAAAGAGAGATAC	917
TGAAATCGAGCCGGCCTCGTGAAAAGGTGTAAAAAA	91
TGCGCAACAACTTGGGTAGTGGGTGTATGTCTAGAA	55.8
CGGGGTTAAGTTTGGATTGTGGGTGGCTTGCAGCAG	65.1
CATACCCAACCTTGTCACTCAACTTAAGATATTTGT	69.1
CGGCTACTGAATCTTTACATTACTTGAGCTGAGAAG	74.3
CTTGGATGGATAGGACACGTGACGGCTTGAATGTAG	6450
GGAGAAGGTATTGATAACCTGCGGGACCGTCTGGTG	63

Repeated from above (block 2):
Oligonucleotide	6-mer enrichment (R)
UAGAUU	0.575
CGGACG	1.54
CCGCCG	0.816
UUGUUC	0.587
ACCCUG	0.673
